Results pooled from the literature.
Every numbered part comes from another study and shows a few of its results, in no order. Substitutions count along the parent as printed.

Sample 1
Target: Ras GTPase-activating protein-binding protein 1, C-terminal RGG region (G3BP1, Homo sapiens, UniProt Q13283)
UniProt Q13283, sequence (whole entry, looked up): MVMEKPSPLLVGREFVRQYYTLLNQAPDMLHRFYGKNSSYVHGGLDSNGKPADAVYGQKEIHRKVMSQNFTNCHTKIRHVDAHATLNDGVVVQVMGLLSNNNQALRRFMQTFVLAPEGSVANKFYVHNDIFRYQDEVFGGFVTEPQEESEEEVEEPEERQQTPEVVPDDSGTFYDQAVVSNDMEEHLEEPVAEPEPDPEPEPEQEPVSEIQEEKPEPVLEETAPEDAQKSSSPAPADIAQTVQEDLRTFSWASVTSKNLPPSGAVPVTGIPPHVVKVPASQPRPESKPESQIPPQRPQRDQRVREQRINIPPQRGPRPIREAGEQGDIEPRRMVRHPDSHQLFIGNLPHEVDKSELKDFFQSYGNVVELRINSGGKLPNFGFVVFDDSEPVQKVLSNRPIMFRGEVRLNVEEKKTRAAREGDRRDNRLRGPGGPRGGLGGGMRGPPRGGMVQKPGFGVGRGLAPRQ
Method: RNA Bind-n-Seq
Molecule type: RNA
Medium: in vitro
Tested at: 1 µM
Setting: whole 134-nt RNA, ends assumed
Added: 150 mM KCl
Baseline: input library
Direction: higher = stronger binding
All sequences stand within: GGGAGUUCUACAGUCCGACGAUC … UGGAAUUCUCGGGUGUCAAGG
The log2 enrichment of `ACCAUGCAGGUGGGCAUCUUUGGGAAGUGGGGCAAGGGGGGGAUAGGGAGGGGGGUAACACUUUGGGAACAGGUGGUGCCAGGUCGUUUC` is reported as 2.18.
For `UCCUGUGCUACACAUCGUAUGUACCGAAUCAAAUUUUUUUAAACCCCCAAACCCCCAAAAAAGUAUUAUGUUACGCCGUUCGGAUCUGCA`, the log2 enrichment was -0.828.
For `UAACUUUAGAGGAGGAUCUGAUGGAUAUGGCAGUGGACGUGGAUUUGGGGAUGGCUAUAAUGGGUAUGGAGGAGGACCUGUAGGUGGCAA`, the log2 enrichment was -1.13.
`UCAAGUCCUGUGCUACACAUCGUAUGUACCGAAUCGGGGCCGGGCCGGGCCGGGGAAAGUAUUAUGUUACGCCGUUCGGAUCUGCACUUC` gave a log2 enrichment of -0.0689.
`CAAGUCCUGUGCUACACAUCGUAUGUACCGAAUCGGAAAAAGGAGGUUUUUUUGGAAAGUAUUAUGUUACGCCGUUCGGAUCUGCACUUC` has a log2 enrichment of -1.81.
`AGUCCUGUGCUACACAUCGUAUGUACCGAAUCGGGCCCCGGGGCCCCGGGGCCCCGGGAAAGUAUUAUGUUACGCCGUUCGGAUCUGCAC` has a log2 enrichment of -0.318.
`UCCUAGUAUUCUGGCCGUUCAGAGAUCUGCAAUCCUCAAGAAGCAGCAACAGCAGCAGCAGCAACAACAACAUCAAGCCUCAUCUAAUAG` gave a log2 enrichment of -0.626.
For `ACCAUGCAGGUGGGCAUCUUUGGGAAGUGGGGCAAGGGGGGGAUAAAGAGGGGGGUAACACUUUGGGAACAGGUGGUCCCAGGUCGUUUC`, the log2 enrichment was -0.826.
`CCUCAAGUCCUGUGCUACACAUCGUAUGUACCGAAUCGGAAAGGAAAGGAGGAAAGUAUUAUGUUACGCCGUUCGGAUCUGCACUUCCAG` gave a log2 enrichment of -0.864.

Sample 2
Target: CCND1, cyclin fold, Cln2 fusion (human)
Method: yeast growth competition, sequencing
Medium: yeast
Setting: strong parent motif
Baseline: not given
Direction: higher = stronger binding
Starting sequence: PKN2 docking peptide (human); VSAVQKLDFSDTM
For `L7Q`, “normalised enrichment score” read -0.266.
`D8I` — result for “normalised enrichment score”: 1.13.
For `V4M`, “normalised enrichment score” read 1.19.
Under “normalised enrichment score”, `A3S` is recorded as 1.21.
`S2C` — result for “normalised enrichment score”: 1.76.
Under “normalised enrichment score”, `A3E` is recorded as 0.379.
`V4Y` — result for “normalised enrichment score”: 1.52.
For `M13A`, “normalised enrichment score” read 1.97.
`F9L` — result for “normalised enrichment score”: 0.371.
For `V4P`, “normalised enrichment score” read 0.785.
For `D8W`, “normalised enrichment score” read 0.52.
`F9H` — result for “normalised enrichment score”: -0.0429.
For `A3F`, “normalised enrichment score” read 0.359.
Under “normalised enrichment score”, `S10R` is recorded as 1.43.
Under “normalised enrichment score”, `L7C` is recorded as 0.382.
`D11Y`: “normalised enrichment score” 1.34.
Under “normalised enrichment score”, `M13R` is recorded as 1.82.
Under “normalised enrichment score”, `K6G` is recorded as 0.971.

Sample 3
Target: ABI1, truncated, D143A, DHFR fusion (Arabidopsis thaliana)
Method: DHFR PCA, deep sequencing
Medium: yeast
Setting: methotrexate growth selection, single substitutions
Added: (+)-ABA 0 µM
Baseline: wild-type fitted maximum
Direction: higher = stronger binding
Starting sequence: PYL1, truncated, DHFR fusion (Arabidopsis thaliana); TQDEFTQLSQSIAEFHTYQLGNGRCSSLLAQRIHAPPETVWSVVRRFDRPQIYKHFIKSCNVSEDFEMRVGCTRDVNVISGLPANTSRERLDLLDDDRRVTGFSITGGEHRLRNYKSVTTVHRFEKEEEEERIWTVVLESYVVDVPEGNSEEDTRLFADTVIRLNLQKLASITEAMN; partner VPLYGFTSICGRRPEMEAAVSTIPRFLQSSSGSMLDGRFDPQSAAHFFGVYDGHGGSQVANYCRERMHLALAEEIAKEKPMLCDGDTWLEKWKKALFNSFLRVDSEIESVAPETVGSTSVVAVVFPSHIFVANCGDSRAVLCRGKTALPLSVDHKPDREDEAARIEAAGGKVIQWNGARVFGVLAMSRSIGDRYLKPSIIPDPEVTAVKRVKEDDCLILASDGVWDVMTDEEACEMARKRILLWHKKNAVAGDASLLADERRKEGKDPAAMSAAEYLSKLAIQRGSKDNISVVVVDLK
`F103C`: “relative binding score” 2.54%.
`E151A`: “relative binding score” 51.5%.
Under “relative binding score”, `D3Q` is recorded as 38.9%.
`T101G`: “relative binding score” -3.5%.
`V44R`: “relative binding score” 2.53%.
`F66N`: “relative binding score” -0.552%.
Under “relative binding score”, `Q2S` is recorded as 25.3%.
`N165S`: “relative binding score” 8.55%.
Under “relative binding score”, `F56L` is recorded as 2.18%.
`L93Y`: “relative binding score” 4.72%.
`D144P` — result for “relative binding score”: -2.94%.
`Q7C` — result for “relative binding score”: 19.8%.
For `M176F`, “relative binding score” read -1.21%.
Under “relative binding score”, `I105V` is recorded as 15.6%.
`D92I` — result for “relative binding score”: 4.85%.
Under “relative binding score”, `E139N` is recorded as -7.51%.
Under “relative binding score”, `S117N` is recorded as -7.28%.
`A13N` — result for “relative binding score”: 23.3%.

Sample 4
Target: RING finger protein unkempt homolog, zinc fingers 1-6, GST-SBP tag (UNK, Homo sapiens, UniProt Q9C0B0, residues 30-357)
UniProt Q9C0B0, sequence (30-357, looked up): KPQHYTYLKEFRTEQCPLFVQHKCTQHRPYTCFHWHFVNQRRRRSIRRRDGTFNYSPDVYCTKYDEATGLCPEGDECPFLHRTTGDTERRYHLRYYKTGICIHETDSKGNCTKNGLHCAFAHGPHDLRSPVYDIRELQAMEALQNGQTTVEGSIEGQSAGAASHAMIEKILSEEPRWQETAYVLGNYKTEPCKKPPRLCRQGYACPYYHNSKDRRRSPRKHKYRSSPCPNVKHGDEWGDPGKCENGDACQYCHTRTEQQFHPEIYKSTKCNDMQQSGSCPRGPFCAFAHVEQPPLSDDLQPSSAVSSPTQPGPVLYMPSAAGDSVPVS
Method: RNA Bind-n-Seq
Molecule type: RNA
Medium: in vitro
Tested at: not given
Setting: RNA with constant flanks, human and mouse sites, ends assumed
Baseline: input RNA pool
Direction: higher = stronger binding
All sequences stand within: GGGAGUUCUACAGUCCGACGAUC … CAACAGAGGAUUGAGCAUCA
For `AAGAAGUGCAAACAGGACAAUAGGAAGGAGGAGCAGGCAGCUUCCCCUGUUGCAGAAGAUGUAGGUGAUGUGGGUGUGAGCUCAGAUGAUGAGAAGAGAGCCCAGGCAGCAAGAGGAUCU`, the bound/input enrichment was 0.51 ratio.
With `AGGCCUACCCGCCGCAGUACUGAUCAUUCUAUUUCCCCCUCUAUUGAUCCCCACCUCCAAAUAUCUCAUCAACAACCGACUAAUCACCACCCAACAAUGACUAAUCAAACUAACCUCAAA` the bound/input enrichment was 1.01 ratio.
The bound/input enrichment of `UGAAGCCAGCGCUCUGCGCCUGGAUGAAGACAGCGAACAUCCUCCCAUGAUUCUCCGGACUGACUGAUCCUGACCUGUGAACUCUGGCCCAGGAGCAGACAACACUGCCUGGCUGAGGAC` is reported as 0.201 ratio.
`GAGGGAGGAACAGCAGUAGCAACAUCAUCAUUAACAGCAGAUAAUGAUUUUAAACCUGUGGGUAUUGGUCUACCCCAUUCAGAAAACAACCAAGAUAAAGGCCUGCCUCGGCCAGAUAAU` gave a bound/input enrichment of 0.537 ratio.
For `UCUGGAUCUGCUUCCUGGCAACACUAGGACAAAAAUCGGUUUCAUAACAUUUGAUAGCACUAUCCAUUUCUACAGUCUUCAGGAAGGUCUCUCCCAGCCUCAGAUGCUAAUAGUUUCAGA`, the bound/input enrichment was 0.736 ratio.
The bound/input enrichment of `AUGUACCCUCUCAAGCCCAGCUGGUGGUUCUGUGCCUUCCCCUACAGUUUCCUCAUCUUCGUCUAUGAUGAGAUUCGCAAACUCAUCCUGCGCAGGAACCCCGGGGGUUGGGUGGAGAAA` is reported as 0.157 ratio.
The bound/input enrichment of `UCACAGGCAGGUUUAAUGGCCAGUUUAAAACUUAUGCUAUCUGCGGGGCCAUUCGUAGGAUGGUGAGUGUUUCCCUGGGCUUUGCUCAUCACUUCGGGACAUCGUGGACUUUACCGUGCG` is reported as 0.136 ratio.
`AUGUACCCUCUCAAGCCCAGCUGGUGGUUCUGUGCCUUCCCCUACAGUUUCCUCAUCUUCGUCUACGACGAAAUCCGCAAACUCAUCCUGCGCAGGAACCCAGGGGGUUGGGUGGAGAAG` gave a bound/input enrichment of 0.166 ratio.

Repeated from above (sample 1):
`UCAAGUCCUGUGCUACACAUCGUAUGUACCGAAUCGGGGCCGGGCCGGGCCGGGGAAAGUAUUAUGUUACGCCGUUCGGAUCUGCACUUC` gave a log2 enrichment of -0.0689.
`CAAGUCCUGUGCUACACAUCGUAUGUACCGAAUCGGAAAAAGGAGGUUUUUUUGGAAAGUAUUAUGUUACGCCGUUCGGAUCUGCACUUC` has a log2 enrichment of -1.81.
`AGUCCUGUGCUACACAUCGUAUGUACCGAAUCGGGCCCCGGGGCCCCGGGGCCCCGGGAAAGUAUUAUGUUACGCCGUUCGGAUCUGCAC` has a log2 enrichment of -0.318.
`UCCUAGUAUUCUGGCCGUUCAGAGAUCUGCAAUCCUCAAGAAGCAGCAACAGCAGCAGCAGCAACAACAACAUCAAGCCUCAUCUAAUAG` gave a log2 enrichment of -0.626.
